Measured values collected from several papers.
Each line is one published result; not all experiments were run side by side.
Target: Serine/threonine-protein kinase DCLK2 (DCLK2, Homo sapiens, UniProt Q8N568)

C=CC(=O)N1CCCC(n2c(=O)c3ncccc3n(Cc3ccc(Oc4ccccc4)cc3)c2=O)C1 (stereo not shown)  remaining binding (cell-free assay, competition with immobilised ligand; 1 µM): 100%
COc1c(OCCCN2CCOCC2)ccc2c1N=C(NC(=O)c1cnc(N)nc1)N1CCN=C21  remaining activity (kinase activity, inhibitor; 1 µM; relative to: untreated control): 53%
CN1CCN(Cc2ccc(-c3ccc(CO[C@H]4CCC[C@@H]4NC(=O)c4cc(-c5cnn(C)c5)cnc4N)cc3)cc2)CC1  inhibition (enzyme activity, inhibitor; 0.1 µM): 2%
NC(=O)[C@@H](O)C[C@H]1CCc2sc3ncnc(O[C@H]4CC[C@H](N5CCOCC5)CC4)c3c21  inhibition (enzyme activity, inhibitor; 10 µM): 16%
COc1c(Cl)cccc1Nc1c(-c2ccncc2C#C[C@@]2(C)CCCN2C(=O)/C=C/CN(C)C)[nH]c2c1C(=O)NCC2  remaining binding (binding, competition with immobilised ligand; 3 µM): 97%
COc1ccc(O)cc1-c1c[nH]c2ncc(-c3cncc(C(=O)N(C)C)c3)cc12  inhibition (binding, competition with immobilised ligand; 0.2 µM): 0.97%
CNC(=O)C1CCN(c2cc(C)c(F)cc2NC(=O)c2ccc(-c3cc(O)ccc3C)c(C)c2)CC1  remaining binding (binding, competition with immobilised ligand; 1 µM): 98%
Nc1ncc(-c2cc(-c3cnn(CC(F)(F)F)c3)ncc2F)nc1C(=O)NC1CNCC(F)C1 (stereo not shown)  remaining activity (enzyme activity; 1 µM; relative to: DMSO control): 102%
Cc1cccc(O[C@H]2CCC[C@@H](C(C)CNCc3ccncc3)C2)c1 (relative stereo)  inhibition (enzyme activity, inhibitor; 1 µM): -1%
CNC1C[S+]2CC[S+]3CC[S+](C1)[Ru-4]321([N]=C=S)[n]2c3ccc(OC)cc3c3c4c(c5cc(F)c[n+]1c5c32)C(=O)NC4=O (stereo not shown)  remaining binding (KinomeScan; 0.1 µM; relative to: untreated): 100%
CCN1CCN(Cc2ccc(C(=O)Nc3ccc(C)c(NCc4cnc5[nH]ccc5c4OC)c3)cc2C(F)(F)F)CC1  remaining binding (binding, competition with immobilised ligand; 1 µM): 100%
Cc1ccc(-c2c(/C=C(\C#N)C(=O)NC(C)C)n(CCCO)c3ncnc(N)c23)cc1  remaining binding (cell-free assay, competition with immobilised ligand; 1 µM): 100%
CCn1cc(C(=O)O)c(=O)c2c(N)c(F)c(NC3CCCCC3)cc21  inhibition (kinase activity; 0.1 µM, with: ATP at Km): -3.8%
C=CC(=O)Nc1cccc(-c2cnc3[nH]cc(C(=O)NC(C)(C)C)c3n2)c1  inhibition (kinase activity; 0.1 µM): 1%
COc1cc(Nc2nc(C)cc(-c3cnn4nc(OC)ccc34)n2)cc(C(F)(F)F)c1  remaining activity (inhibitor; 1 µM, DCAMKL2; relative to: control): 84%
C=CC(=O)N1Cc2nc(-c3cc(-c4cc(Cl)cnc4Cl)c(F)cc3F)n(-c3ccncn3)c2C1  inhibition (cell-free assay, inhibitor; 1 µM): 11.6%

For quick reference, copied from above:
NC(=O)[C@@H](O)C[C@H]1CCc2sc3ncnc(O[C@H]4CC[C@H](N5CCOCC5)CC4)c3c21  inhibition (enzyme activity, inhibitor; 10 µM): 16%
COc1c(Cl)cccc1Nc1c(-c2ccncc2C#C[C@@]2(C)CCCN2C(=O)/C=C/CN(C)C)[nH]c2c1C(=O)NCC2  remaining binding (binding, competition with immobilised ligand; 3 µM): 97%
